Experimental data pooled from the literature.
Each line is one published result; not all experiments were run side by side. “And” joins repeats or separate records; there may be more than shown. Numbers after ± are the reported error.

Under “fold change in expression”, Cn1cc(-c2ccc(-c3cncc(Cl)c3N3CCC4(CCNC4=O)CC3)cc2)cn1 is recorded as 3.1 (COLO 205; microarray, item: PGF; concentration not given, 6 h, gene set PLGF; baseline: untreated cells).
With C=Cc1c2[n-]c(c1C)/C=c1\[n-]/c(c(C)c1C=C)=C\c1[n-]c(c(CCC(=O)O)c1C)/C=c1\[n-]c(c(C)c1CCC(=O)O)=C2.[Sn+4] the fold change was 1.66 (SH-SY5Y; RNA-seq, item: PLK2 mRNA; 5 µM, 5 h; baseline: untreated cells).
CC12CC3CC(C)(C1)CC(N)(C3)C2 has an activity score of 3.1 (human iPSC-derived cardiomyocytes; MyBP-C/MYH ratio, plate-normalised SD score; concentration not given, primary screen; direction not given).
The efficacy of COc1ccnc(CSC(N)=Nc2ccccc2OC)c1.Cl is reported as 130% (C127 LDR GFP reporter cells; silenced GFP reporter induction, activator, high-content imaging; retest, two-run mean).
Under “mean growth percent”, O=C(Nc1nnc2n3c(=S)[nH][nH]c3nc(-c3ccc(Cl)cc3)c1-2)c1ccccc1 is recorded as 94.9% (NCI60 cell panel; SRB; 10 µM).
CCN(CC)C(=O)c1ccc(O)c(OC)c1 gave an activity score of 3.5 (human iPSC-derived cardiomyocytes; MyBP-C/MYH ratio, plate-normalised SD score; concentration not given, primary screen; direction not given).
With CN(C)S(=O)(=O)c1cccc(NC(=S)N/N=C/c2ccco2)c1 the efficacy was 37% (C127 LDR GFP reporter cells; silenced GFP reporter induction, activator, high-content imaging; retest, two-run mean).
The relaxation velocity of O=c1[nH]c(=O)c2cc(S(=O)(=O)Nc3ccc(N4CCCCCC4)cc3)ccc2[nH]1 is reported as 123% (adult rat ventricular myocytes; 10 µM; baseline: basal).
Cc1cc(Nc2ncc(Cl)c(Nc3ccccc3S(=O)(=O)C(C)C)n2)c(OC(C)C)cc1C1CCNCC1: “log2 fold change” -2.02 (CLB-GE; phosphoproteomics LC-MS/MS, item: TJAP1 phosphorylation; 200 nM, 60 min; baseline: untreated).
For CC(=O)N(CC(O)CO)c1c(I)c(C(=O)NCCO)c(I)c(C(=O)NCC(O)CO)c1I (stereo not drawn), the activity score was -3.1 (human iPSC-derived cardiomyocytes; MyBP-C/MYH ratio, plate-normalised SD score; concentration not given, primary screen; direction not given).
COc1ccc(-c2cc(-c3ccccc3)nc(SCC(=O)Nc3nccs3)c2C#N)cc1 has an efficacy of 42% (C127 LDR GFP reporter cells; silenced GFP reporter induction, activator, high-content imaging; retest, two-run mean).
For CCCCCCCCCCCCCCCC[N+](C)(C)CCN(Cc1ccc(OC)cc1)c1ncccn1, the activity score was 3.1 (human iPSC-derived cardiomyocytes; MyBP-C/MYH ratio, plate-normalised SD score; concentration not given, primary screen; direction not given).
With CCCCc1oc2ccc(NS(C)(=O)=O)cc2c1C(=O)c1ccc(OCCCN(CCCC)CCCC)cc1 the fold change was 2.1 fold (human embryonic stem cell aggregates; mRNA level, microarray, item: PAX3; 0.5 µM, 120 h; baseline: untreated, down-regulated).
CC(C)C(=O)N1CCN(c2ccc(NC(=O)c3ccc([N+](=O)[O-])o3)cc2Cl)CC1 gave an efficacy of 69% (C127 LDR GFP reporter cells; silenced GFP reporter induction, activator, high-content imaging; retest, two-run mean).
CCCCc1nc(Cl)c(CO)n1Cc1ccc(-c2ccccc2-c2nn[nH]n2)cc1: “log2 fold change” -1.85 (human PBMC; RNA-seq, item: CD163 mRNA; 10 µg/mL, 24 h; baseline: untreated control).
With COc1cnc2cccc(N3CCc4c(cc(Cn5ccnc5C)cc4-c4cn(C)nc4C(F)(F)F)C3=O)c2c1 the EC50 was greater than 30 µM (NCI-H838; cell growth, inhibitor; 120 h).
With C=CC(=O)N1[C@@H](c2ccc3c(c2)OCO3)c2[nH]c3ccccc3c2C[C@H]1C(=O)NC the neuron degeneration was 80.4% and 77.5% (rat DRG neurons; 0.04115 µM, 48 h, added: vincristine 40 nM).
The maximum efficacy of CCOn1c(=O)c[n+]([O-])c2ccccc21 is reported as 14% (C127 LDR GFP reporter cells; silenced GFP reporter induction, activator, high-content imaging; independent samples, two-run mean).
C[C@@]12C(=O)OC(=O)[C@]1(C)[C@H]1CC[C@@H]2O1 gave a MyBP-C level of 2% (MYBPC3 iPSC cardiomyocytes; plate-normalised; concentration not given, 24 h, hit retest).
Cc1cccc(-c2[nH]c(CNc3ccccc3F)nc2-c2ccc3ncnn3c2)n1 has a viability of 51% and 62% and 41% (MM1.S; XTT; 1.4 µM).
With O=C(/C=C/C=C/C=C/C1CCCCC1)NC1=C[C@@](O)(/C=C/C=C/C=C/C(=O)NC2=C(O)CCC2=O)[C@@H]2O[C@@H]2C1=O the GI50 was 24 µM (KNS-42; cell growth, CellTiter-Glo; 78 h).
Cn1cncc1C1=CN(c2ncnc3[nH]cnc23)CCS1 gave a TGI of 89.1 µM (T29; colon cancer).
For COc1ccc2nc([S@@+]([O-])Cc3ncc(C)c(OC)c3C)[nH]c2c1, the activity score was -3.5 (human iPSC-derived cardiomyocytes; MyBP-C/MYH ratio, plate-normalised SD score; concentration not given, primary screen; direction not given).
For O=c1c2ccccc2nc(COc2ccccc2)n1/N=C/c1c[nH]c2ccccc12, the efficacy was 26% (C127 LDR GFP reporter cells; silenced GFP reporter induction, activator, high-content imaging; retest, two-run mean).
With CCCCN1CCN(c2ccc3[nH]c(-c4ccc5[nH]c(-c6ccc(C(F)(F)F)cc6)nc5c4)nc3c2)CC1 the growth percent was -63.5% (M14; SRB; 10 µM, 48 h).
With Cc1cc(=O)[nH]n1-c1nc(-c2ccc(Cl)cc2)c2c(NC(=O)c3ccccc3)nnc-2[nH]1 the cell growth was 91.8% (M14; SRB; 10 µM, NCI60 single-dose screen; baseline: untreated).
Nc1ncnc2c1ncn2[C@@H]1O[C@H](CO)[C@@H](O)[C@H]1O gave a viability of 87.2 a.u. and 82.9 a.u. and 84.1 a.u. (activated human T cells; 316 nM, 72 h; higher = more viable cells).
The mRNA level of COc1cc(/C=C/C(=O)N2CCC=CC2=O)cc(OC)c1OC is reported as 57.7 ± 3.4% (MDA-MB-468; quantitative RT-PCR, item: Survivin; 30 µM, 8 h; baseline: untreated).
Under “point of departure”, COc1cccc2c1C(=O)c1c(O)c3c(c(O)c1C2=O)C[C@@](O)(C(=O)CO)C[C@@H]3O[C@H]1C[C@H](N)[C@H](O)[C@H](C)O1 is recorded as 0.0174 µM (HepG2; CellTiter-Glo, item: cellular ATP; 24 h, representative mode).
CC[C@H](C)N(CC(=O)N(CC(=O)N(CC(=O)N(CC(=O)N(CC(=O)N(CC(=O)N(CC(N)=O)[C@@H](C)c1ccccc1)[C@@H](C)c1ccccc1)[C@@H](C)CC)[C@@H](C)c1ccccc1)[C@@H](C)c1ccccc1)[C@@H](C)CC)C(=O)CNCCCCN — result for “RAGE surface expression”: “decreased” (THP-1 macrophages; confocal immunocytochemistry; 50 µM, 72 h, added: LPS 2 ng/mL).
CCCCCNC(=O)N1CCC(CN(Cc2ccc(Cl)cc2)Cc2ccc([N+](=O)[O-])s2)C1 (stereo not drawn) gave an inhibition of 5.9% (knock-down, REV-ERBα/β, HepG2; transcription, qPCR, item: BMAL1 mRNA; concentration not given).
CN(C)CCOc1cc(NC(=O)c2cc(Cl)cc(C(=O)Nc3cc(OCCN(C)C)c4ccccc4n3)n2)nc2ccccc12 gave a selectivity ratio of 1.8 (U2OS; cell viability, CellTiter-Glo; 72 h; baseline: IC50 U2OS over WI-38).
The activity score of OCC(O)CN1CCN(c2ccccc2)CC1 (stereo not drawn) is reported as 4 (human iPSC-derived cardiomyocytes; MyBP-C/MYH ratio, plate-normalised SD score; concentration not given, primary screen; direction not given).
CCn1cc(-c2cc(Cn3ccoc3=N)cc3c2CCN([C@@H](C)c2cc(OC)ccn2)C3=O)c(C(F)(F)F)n1 gave an EC50 of 1.18 µM (OVISE; cell growth, inhibitor; 120 h).
For COc1ccc(-n2nc(C(C)=O)s/c2=N\N=C(/C)c2ccc(NC(=O)c3ccc(C)cc3)cc2)cc1, the viability was 11.9% (HepG2; 2.5 µM).
With Clc1ccc(C2(c3ccc(-c4cn[nH]c4)cc3)CCNCC2)cc1 the Bcl-2 MFI was 3180 a.u. (primary CLL cells; flow cytometry; human; 10 µM, 24 h; baseline: DMSO, higher = more protein).
CN(C)CCCOc1cc(NC(=O)c2cc(Cl)cc(C(=O)Nc3cc(OCCCN(C)C)c4ccccc4n3)n2)nc2ccccc12 gave a selectivity ratio of 2 (U2OS; cell viability, CellTiter-Glo; 72 h; baseline: IC50 U2OS over WI-38).
CCn1cc(-c2cc(Cn3ccnc3)cc3c2CCN([C@H](c2cc(OC)ccn2)C2CC2)C3=O)c(C(F)(F)F)n1 has an EC50 of greater than 30 µM (SNU478; cell growth; 120 h).
With Clc1ccc(N/N=C(\c2ccccc2)c2ccccn2)nc1 the apoptotic cells was roughly 60% (SK-BR-3; annexin V flow cytometry; 0.5 µM, 48 h).
CSCC[C@H](NC(=O)[C@H](Cc1ccc(OS(=O)(=O)O)cc1)NC(=O)[C@@H](N)CC(=O)O)C(=O)NCC(=O)N[C@@H](Cc1c[nH]c2ccccc12)C(=O)N[C@@H](CCSC)C(=O)N[C@@H](CC(=O)O)C(=O)N[C@@H](Cc1ccccc1)C(N)=O has a calcium response of 0.131 a.u. and 0.0891 a.u. (HEK293T control virus; agonist, calcium mobilization; 0.0256 nM, no receptor expressed; higher = more calcium release).
The fold change of Cn1c(Nc2nc3ccc(C(F)(F)F)cc3s2)nc2cc(C(=O)NCCOCCO)ccc21 is reported as 4.52 (SH-SY5Y; RNA-seq, item: CEBPD mRNA; 5 µM, 5 h; baseline: untreated cells).
For c1ccc2[nH]ccc2c1, “mRNA level, LS mean” read 2.06 counts per million (HCT-8; RNA-seq, item: EGR2; concentration not given).
For C[C@]12CC[C@H]3C(=CCc4cc(O)ccc43)[C@@H]1CCC2=O, the activity score was -3.4 (human iPSC-derived cardiomyocytes; MyBP-C/MYH ratio, plate-normalised SD score; concentration not given, primary screen; direction not given).
With O=C(CCCSc1nc2c(c(=O)[nH]1)CCCC2)Nc1nc2ccccc2[nH]1 the inhibition was 77 ± 2% (cells, COS-1, expressing proMMP-9; cell migration, 2D collagen dot migration; 50 µM, 18 h).
For C=CCn1c(=O)c2cnc(Nc3ccc(N4CCN(C)CC4)cc3)nc2n1-c1ccc2c(n1)[C@@](O)(CC)CC2, “cleaved caspase-3 level” read “increased” (A-427; capillary western blot; 0.1, 0.3, 1 µM, 16 h).
Under “surface marker level”, Nc1cccc2c1C(=O)N(C1CCC(=O)NC1=O)C2=O (stereo not drawn) is recorded as 226% (RPMI-8226; flow cytometry, item: CD227; concentration not given; baseline: comparator compound alone).
Cn1cc(Nc2nccc(-c3ccc4c(c3)CN(C3COC3)CC[C@H]4NC(=O)c3cn(C(C)(C)C)nn3)n2)cn1 — result for “pathway activation z-score”: -3 (mouse splenic B cells; item: RAN signalling; 30 mg/kg, IgD-activated in vivo; baseline: vehicle, direction not given).
For O=C(CCCSc1nc2c(c(=O)[nH]1)CCCC2)Nc1ccc(F)cc1, the inhibition was 90 ± 2% (cells, COS-1, expressing proMMP-9; cell migration, 2D collagen dot migration; 50 µM, 18 h).
Under “YAP protein level”, CC/C(=N\NC(=O)NCc1cccc(O)c1)c1ccc(O)c(C)c1O is recorded as 0.98 ± 0.25 (SK-OV-3; Western blot; 3D culture in gellan gum; 5 µM, 1 h, unit not given; baseline: β-actin).
C=CC1=C(C)c2cc3[n-]c(cc4nc(cc5[n-]c(cc1n2)c(C)c5C=C)C(C)=C4CCC(=O)O)c(CCC(=O)O)c3C.[Zn+2] has a fold change of 1.88 (SH-SY5Y; RNA-seq, item: IQGAP2 mRNA; 5 µM, 5 h; baseline: untreated cells).
CC(C)NCC(O)c1ccc(O)c(O)c1 (stereo not drawn) has a sarcomere length of 1.73 µm (mouse ventricular cardiomyocytes; dose not given, 0.095 s).
